Measured values gathered from unrelated publications.
Converted amounts (≈) assume the structure as drawn.

SMILES = COc1ccc(CNC[C@](O)(COCc2ccccc2)[C@@H]2CC[C@@H](C)C[C@H]2OCc2ccccc2)cc1; matrix = PBS; time = 2 h; pH = pH 7.4; measurement = kinetic solubility; value = 3.2 µM (≈ 1.61 µg/mL)
SMILES = CCC/C(=C\C1=C(C(F)(F)F)C(=O)c2ccccc2C1=O)C(=O)N(CC)CC; matrix = FeSSIF; time = 24 h; temperature = 37 °C; measurement = thermodynamic solubility; value = 81 µg/mL
SMILES = Cc1ccc(NCC(=O)Nc2ccc(F)c(Cl)c2)cc1C(=O)N1CCOCC1; matrix = water; measurement = kinetic solubility; value = > 250 µM
SMILES = CCC/C(=C\C1=C(OC)C(=O)c2ccccc2C1=O)C(=O)NOC; matrix = FaSSIF; time = 24 h; temperature = 37 °C; measurement = thermodynamic solubility; value = 385 µg/mL
SMILES = C[C@@H]1CC[C@@H]([C@@](O)(COCc2ccccc2)Cn2cnc3ccccc32)[C@H](OCc2ccccc2)C1; matrix = PBS; time = 2 h; pH = pH 7.4; measurement = kinetic solubility; value = 2.2 µM (≈ 1.07 µg/mL)
SMILES = O=C(CNc1cccc(S(=O)(=O)N2CCOCC2)c1)Nc1ccc(F)c(Cl)c1; matrix = water; measurement = kinetic solubility; value = 187 µM (≈ 80 µg/mL)
SMILES = COc1ccc(COC[C@](O)(CNCc2ccc(F)cc2)[C@@H]2CC[C@@H](C)C[C@H]2OCc2ccc(OC)cc2)cc1; matrix = PBS; time = 2 h; pH = pH 7.4; measurement = kinetic solubility; value = 124 µM (≈ 68.4 µg/mL)
SMILES = CCC/C(=C\C1=C(F)C(=O)c2ccccc2C1=O)C(=O)N(CC)CC; matrix = FeSSIF; time = 24 h; temperature = 37 °C; measurement = thermodynamic solubility; value = 50 µg/mL
SMILES = Cc1ccc(NCC(=O)Nc2cnccn2)cc1S(=O)(=O)N1CCOCC1; matrix = water; measurement = kinetic solubility; value = 55 µM (≈ 21.5 µg/mL)
SMILES = C[C@@H]1CC[C@@H]([C@](O)(CNCc2ccc(F)cc2)COCc2ccccc2)[C@H](OCc2ccccc2)C1; matrix = PBS; time = 2 h; pH = pH 7.4; measurement = kinetic solubility; value = 1.1 µM (≈ 0.541 µg/mL)
SMILES = Cc1cnc(Nc2cc(C)c(C)c(C)c2)nc1Nc1ccc2oc(=O)[nH]c2c1; matrix = aqueous buffer; pH = pH 7.4; measurement = thermodynamic solubility; value = 0.03 µM
SMILES = Cc1ccc(NCC(=O)NC2CCC(F)(F)CC2)cc1S(=O)(=O)N1CCOCC1; matrix = water; measurement = kinetic solubility; value = > 250 µM
SMILES = C[C@@H]1CC[C@@H]([C@@](O)(CNCc2ccccc2F)COCc2ccccc2)[C@H](OCc2ccccc2)C1; matrix = PBS; time = 2 h; pH = pH 7.4; measurement = kinetic solubility; value = 0.6 µM (≈ 0.295 µg/mL)
SMILES = Cc1c(-c2ccc(Cc3ccc(OC(F)(F)F)cc3)cc2)[nH]c2cccc(F)c2c1=O; matrix = methanol; time = 24 h; measurement = solubility; value = 28000 µM (≈ 12000 µg/mL)
SMILES = Cc1ccc(NCC(=O)NC2CCCCC2)cc1S(=O)(=O)N1CCOCC1; matrix = water; measurement = kinetic solubility; value = 20 µM (≈ 7.91 µg/mL)
SMILES = CCNCC#CCNc1ccnc2cc(Cl)ccc12; matrix = PBS; pH = pH 7.4; measurement = thermodynamic solubility; value = 1350 µM
